Results collected from several papers.
Each line is one published result; not all experiments were run side by side.
4'-phosphopantetheinyl transferase PptT: 4'-phosphopantetheinyl transferase PptT (Mycobacterium tuberculosis, UniProt O33336)
Sequence of UniProt O33336 (whole entry, looked up): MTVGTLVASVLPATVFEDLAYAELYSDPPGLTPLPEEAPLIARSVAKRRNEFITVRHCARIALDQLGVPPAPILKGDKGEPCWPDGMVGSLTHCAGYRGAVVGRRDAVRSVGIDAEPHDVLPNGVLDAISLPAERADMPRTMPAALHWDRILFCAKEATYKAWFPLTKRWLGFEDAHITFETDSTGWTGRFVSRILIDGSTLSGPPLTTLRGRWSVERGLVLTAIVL
Sequence of UniProt P35368 (whole entry, looked up): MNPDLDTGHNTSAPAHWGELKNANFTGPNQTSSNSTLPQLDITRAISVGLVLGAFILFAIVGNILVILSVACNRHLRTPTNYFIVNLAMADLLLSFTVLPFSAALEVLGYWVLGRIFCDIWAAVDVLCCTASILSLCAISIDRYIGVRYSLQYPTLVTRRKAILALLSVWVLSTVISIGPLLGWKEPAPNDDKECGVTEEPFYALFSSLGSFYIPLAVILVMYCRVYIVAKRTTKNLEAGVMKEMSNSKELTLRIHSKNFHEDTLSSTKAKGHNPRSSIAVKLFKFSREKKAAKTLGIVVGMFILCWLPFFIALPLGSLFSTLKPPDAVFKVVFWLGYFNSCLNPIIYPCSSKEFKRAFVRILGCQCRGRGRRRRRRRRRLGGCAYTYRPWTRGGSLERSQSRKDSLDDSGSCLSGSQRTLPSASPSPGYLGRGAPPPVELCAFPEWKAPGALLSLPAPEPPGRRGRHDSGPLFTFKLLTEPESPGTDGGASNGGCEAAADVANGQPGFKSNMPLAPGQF
Sequence of UniProt Q00536 (whole entry, looked up): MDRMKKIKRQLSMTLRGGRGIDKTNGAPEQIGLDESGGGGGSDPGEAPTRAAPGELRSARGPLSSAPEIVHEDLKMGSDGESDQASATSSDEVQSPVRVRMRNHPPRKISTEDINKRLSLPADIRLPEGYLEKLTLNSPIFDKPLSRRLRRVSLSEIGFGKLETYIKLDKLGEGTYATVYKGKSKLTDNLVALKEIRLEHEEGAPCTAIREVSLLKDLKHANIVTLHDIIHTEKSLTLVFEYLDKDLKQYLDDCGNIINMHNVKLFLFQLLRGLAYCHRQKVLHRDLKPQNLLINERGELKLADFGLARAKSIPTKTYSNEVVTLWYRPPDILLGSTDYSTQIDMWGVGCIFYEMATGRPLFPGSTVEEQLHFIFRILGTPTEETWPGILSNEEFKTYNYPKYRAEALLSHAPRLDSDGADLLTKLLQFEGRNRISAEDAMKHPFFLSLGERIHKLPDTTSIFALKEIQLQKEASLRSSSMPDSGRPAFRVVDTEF
Sequence of UniProt Q96SB4 (whole entry, looked up): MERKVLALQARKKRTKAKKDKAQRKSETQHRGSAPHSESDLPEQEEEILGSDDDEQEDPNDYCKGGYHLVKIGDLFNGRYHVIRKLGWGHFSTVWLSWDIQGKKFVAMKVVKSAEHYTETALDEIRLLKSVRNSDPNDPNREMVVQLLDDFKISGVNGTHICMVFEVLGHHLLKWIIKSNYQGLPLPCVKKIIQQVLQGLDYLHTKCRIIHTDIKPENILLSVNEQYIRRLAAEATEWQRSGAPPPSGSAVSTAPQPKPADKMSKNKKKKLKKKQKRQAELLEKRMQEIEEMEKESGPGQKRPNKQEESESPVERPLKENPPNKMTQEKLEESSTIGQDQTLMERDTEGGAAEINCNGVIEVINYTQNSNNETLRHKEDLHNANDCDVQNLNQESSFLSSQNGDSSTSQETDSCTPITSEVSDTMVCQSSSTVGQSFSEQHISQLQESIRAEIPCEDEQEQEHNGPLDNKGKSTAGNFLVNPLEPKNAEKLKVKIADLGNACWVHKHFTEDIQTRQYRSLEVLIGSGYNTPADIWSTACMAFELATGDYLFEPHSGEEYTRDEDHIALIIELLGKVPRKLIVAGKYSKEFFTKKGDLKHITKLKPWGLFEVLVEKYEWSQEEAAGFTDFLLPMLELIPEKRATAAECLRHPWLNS
Sequence of UniProt Q99755 (whole entry, looked up): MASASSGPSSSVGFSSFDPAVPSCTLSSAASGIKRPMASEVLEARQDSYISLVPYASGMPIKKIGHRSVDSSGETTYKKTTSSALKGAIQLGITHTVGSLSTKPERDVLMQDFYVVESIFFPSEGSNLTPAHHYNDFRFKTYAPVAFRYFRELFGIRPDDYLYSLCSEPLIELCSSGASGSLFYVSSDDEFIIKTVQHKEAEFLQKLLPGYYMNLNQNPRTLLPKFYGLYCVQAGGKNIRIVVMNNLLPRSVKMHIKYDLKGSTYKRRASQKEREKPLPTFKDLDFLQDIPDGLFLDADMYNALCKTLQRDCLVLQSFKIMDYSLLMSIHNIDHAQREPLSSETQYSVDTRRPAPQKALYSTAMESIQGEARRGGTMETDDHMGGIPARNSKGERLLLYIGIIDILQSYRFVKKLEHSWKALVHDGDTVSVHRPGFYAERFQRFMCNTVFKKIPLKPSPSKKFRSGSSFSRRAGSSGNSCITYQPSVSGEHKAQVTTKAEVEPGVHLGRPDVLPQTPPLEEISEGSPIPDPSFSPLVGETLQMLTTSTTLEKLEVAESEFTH
Sequence of UniProt Q13546 (whole entry, looked up): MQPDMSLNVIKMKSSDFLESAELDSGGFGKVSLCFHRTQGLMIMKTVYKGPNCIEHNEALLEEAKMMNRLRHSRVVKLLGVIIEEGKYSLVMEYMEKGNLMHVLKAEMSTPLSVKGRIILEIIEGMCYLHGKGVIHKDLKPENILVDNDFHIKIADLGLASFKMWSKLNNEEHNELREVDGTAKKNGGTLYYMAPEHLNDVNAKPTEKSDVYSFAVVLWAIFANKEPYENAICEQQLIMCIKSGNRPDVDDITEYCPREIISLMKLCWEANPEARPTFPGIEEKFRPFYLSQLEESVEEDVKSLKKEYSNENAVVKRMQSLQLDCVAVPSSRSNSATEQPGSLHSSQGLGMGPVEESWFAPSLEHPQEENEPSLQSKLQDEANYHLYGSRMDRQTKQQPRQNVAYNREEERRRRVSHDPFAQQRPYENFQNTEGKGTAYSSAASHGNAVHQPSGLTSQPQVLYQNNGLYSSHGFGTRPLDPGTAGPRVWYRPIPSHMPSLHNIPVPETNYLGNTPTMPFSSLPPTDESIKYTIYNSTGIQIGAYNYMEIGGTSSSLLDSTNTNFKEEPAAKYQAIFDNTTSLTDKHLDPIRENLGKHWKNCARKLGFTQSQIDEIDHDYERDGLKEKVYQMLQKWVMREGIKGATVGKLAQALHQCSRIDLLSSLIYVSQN
Sequence of UniProt P54646 (whole entry, looked up): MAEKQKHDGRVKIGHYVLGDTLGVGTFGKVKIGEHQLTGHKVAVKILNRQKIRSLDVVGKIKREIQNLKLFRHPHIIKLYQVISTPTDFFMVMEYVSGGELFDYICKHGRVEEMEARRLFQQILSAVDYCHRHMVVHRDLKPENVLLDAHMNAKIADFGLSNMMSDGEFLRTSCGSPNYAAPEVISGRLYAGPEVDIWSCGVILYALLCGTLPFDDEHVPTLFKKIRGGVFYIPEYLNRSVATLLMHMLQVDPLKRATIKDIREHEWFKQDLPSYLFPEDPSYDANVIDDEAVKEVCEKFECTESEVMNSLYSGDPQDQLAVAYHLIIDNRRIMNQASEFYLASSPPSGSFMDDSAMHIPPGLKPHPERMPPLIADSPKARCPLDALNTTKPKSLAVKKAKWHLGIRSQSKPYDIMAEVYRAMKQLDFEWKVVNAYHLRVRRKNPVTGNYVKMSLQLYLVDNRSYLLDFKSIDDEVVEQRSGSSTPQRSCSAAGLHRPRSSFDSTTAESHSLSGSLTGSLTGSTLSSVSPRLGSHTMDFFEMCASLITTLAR
Sequence of UniProt P35372 (whole entry, looked up): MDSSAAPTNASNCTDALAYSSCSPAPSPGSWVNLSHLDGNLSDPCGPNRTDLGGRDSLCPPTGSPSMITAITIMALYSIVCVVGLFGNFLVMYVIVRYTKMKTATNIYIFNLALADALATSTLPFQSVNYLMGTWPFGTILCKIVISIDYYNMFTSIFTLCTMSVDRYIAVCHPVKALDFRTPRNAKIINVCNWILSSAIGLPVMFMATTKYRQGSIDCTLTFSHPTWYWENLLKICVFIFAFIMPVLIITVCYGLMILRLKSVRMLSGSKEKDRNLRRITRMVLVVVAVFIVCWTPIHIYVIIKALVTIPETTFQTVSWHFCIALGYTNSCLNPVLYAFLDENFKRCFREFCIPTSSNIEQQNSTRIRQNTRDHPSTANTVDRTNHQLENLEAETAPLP
Sequence of UniProt P34972 (whole entry, looked up): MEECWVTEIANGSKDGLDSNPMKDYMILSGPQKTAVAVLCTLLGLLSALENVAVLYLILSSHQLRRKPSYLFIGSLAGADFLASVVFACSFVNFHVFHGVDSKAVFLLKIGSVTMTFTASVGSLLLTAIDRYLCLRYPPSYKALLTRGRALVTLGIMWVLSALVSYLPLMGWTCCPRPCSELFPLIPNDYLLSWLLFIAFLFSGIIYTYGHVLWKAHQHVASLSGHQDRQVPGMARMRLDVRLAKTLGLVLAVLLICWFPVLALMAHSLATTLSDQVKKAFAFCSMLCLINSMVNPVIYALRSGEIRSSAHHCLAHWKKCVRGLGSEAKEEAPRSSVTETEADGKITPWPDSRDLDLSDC
Sequence of UniProt P46098 (whole entry, looked up): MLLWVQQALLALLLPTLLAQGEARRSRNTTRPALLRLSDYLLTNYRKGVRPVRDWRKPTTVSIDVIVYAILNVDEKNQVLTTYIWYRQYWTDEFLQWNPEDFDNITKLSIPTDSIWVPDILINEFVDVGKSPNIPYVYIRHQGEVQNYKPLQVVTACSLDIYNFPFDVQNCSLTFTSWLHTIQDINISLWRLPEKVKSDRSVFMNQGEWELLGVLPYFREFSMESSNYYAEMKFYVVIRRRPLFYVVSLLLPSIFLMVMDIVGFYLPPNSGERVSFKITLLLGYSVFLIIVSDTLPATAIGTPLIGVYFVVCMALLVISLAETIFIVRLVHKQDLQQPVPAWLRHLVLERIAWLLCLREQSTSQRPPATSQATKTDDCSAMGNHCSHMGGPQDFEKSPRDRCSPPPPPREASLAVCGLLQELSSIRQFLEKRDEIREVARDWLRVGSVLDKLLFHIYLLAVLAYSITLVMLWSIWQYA

With C#Cc1n[nH]c2c(-c3cn(C(C)c4ccccn4)c(=O)[nH]c3=O)cc(F)cc12 (centres unmarked) the inhibition was 6.7% (SRPK1 (Homo sapiens, UniProt Q96SB4); enzyme activity, inhibitor; 1 µM).
The Emax of C[C@H]1CN(CCCc2ccccc2)CCN1c1cccc(O)c1 is reported as 0% (OPRM1 (Homo sapiens, UniProt P35372); cAMP, agonist; OPRM1).
With O=c1c2cc(C(F)(F)F)ccc2[nH]c(=S)n1Cc1cccnc1 the IC50 was 1210 nM (4'-phosphopantetheinyl transferase PptT; enzyme activity, inhibitor, FP).
[2H]c1c([2H])c([C@]2([2H])CCCN2C(=O)C(C)(C)Oc2ccc3cn[nH]c3c2)c([2H])c([2H])c1C([2H])([2H])[2H] has a remaining binding of 100% (PRKAA2 (Homo sapiens, UniProt P54646); binding, competition with immobilised ligand; 1 µM).
COc1ncccc1-c1cnn2ccc(N3CCN(C(=O)OC(C)C)CC3)nc12 has a remaining binding of 100% (PIP5K1A (Homo sapiens, UniProt Q99755); binding, competition with immobilised ligand; 1 µM).
The IC50 of Cc1ccc2[nH]c(=S)n(Cc3cccnc3)c(=O)c2c1 is reported as 830 nM (4'-phosphopantetheinyl transferase PptT; enzyme activity, inhibitor, FP).
CN1CCC[C@H]1c1cccnc1 gave an inhibition of 5.48% (HTR3A (Homo sapiens, UniProt P46098); ligand displacement, radioligand; 50 µM).
With CCCCCc1ccccc1C/C=C\C/C=C\C/C=C\CCCC(=O)OC(CO)CO the Emax was 8% (CNR2 (Homo sapiens, UniProt P34972); β-arrestin recruitment, agonist).
With CC(C)CC(=O)OC[C@H]1O[C@@](C#N)(c2ccc3c(N)ncnn23)[C@H](O)[C@@H]1O the inhibition was 7% (ADRA1B (Homo sapiens, UniProt P35368); cell-free assay; 20 µM).
Nc1ncc(-c2nc(N3CCOCC3)nc(N3CCOCC3)n2)c(C(F)F)n1 gave a remaining binding of 90% (CDK16 (Homo sapiens, UniProt Q00536); binding, competition with immobilised ligand; 10 µM).
With Cc1nn(C)cc1-c1nc2c(N3CCN(Cc4ccc(Cl)cc4)CC3)c(Cl)cnc2[nH]1 the remaining binding was 78% (RIPK1 (Homo sapiens, UniProt Q13546); binding, competition with immobilised ligand; 1 µM).

Some of these lines once more:
With C#Cc1n[nH]c2c(-c3cn(C(C)c4ccccn4)c(=O)[nH]c3=O)cc(F)cc12 (centres unmarked) the inhibition was 6.7% (SRPK1 (Homo sapiens, UniProt Q96SB4); enzyme activity, inhibitor; 1 µM).
